# Assay results gathered from unrelated publications.
# A part holds a random share of what one study measured.

# Sample 1 — method: universal PBM; form: double-stranded DNA, one strand shown; sample: in vitro; concentration: 600 nM; reading: higher = stronger binding
# Target: Sal-like protein 4, full length isoform A (SALL4, Homo sapiens, UniProt Q9UJQ4, residues 1-1053)
# Chain of UniProt Q9UJQ4 (whole entry, looked up): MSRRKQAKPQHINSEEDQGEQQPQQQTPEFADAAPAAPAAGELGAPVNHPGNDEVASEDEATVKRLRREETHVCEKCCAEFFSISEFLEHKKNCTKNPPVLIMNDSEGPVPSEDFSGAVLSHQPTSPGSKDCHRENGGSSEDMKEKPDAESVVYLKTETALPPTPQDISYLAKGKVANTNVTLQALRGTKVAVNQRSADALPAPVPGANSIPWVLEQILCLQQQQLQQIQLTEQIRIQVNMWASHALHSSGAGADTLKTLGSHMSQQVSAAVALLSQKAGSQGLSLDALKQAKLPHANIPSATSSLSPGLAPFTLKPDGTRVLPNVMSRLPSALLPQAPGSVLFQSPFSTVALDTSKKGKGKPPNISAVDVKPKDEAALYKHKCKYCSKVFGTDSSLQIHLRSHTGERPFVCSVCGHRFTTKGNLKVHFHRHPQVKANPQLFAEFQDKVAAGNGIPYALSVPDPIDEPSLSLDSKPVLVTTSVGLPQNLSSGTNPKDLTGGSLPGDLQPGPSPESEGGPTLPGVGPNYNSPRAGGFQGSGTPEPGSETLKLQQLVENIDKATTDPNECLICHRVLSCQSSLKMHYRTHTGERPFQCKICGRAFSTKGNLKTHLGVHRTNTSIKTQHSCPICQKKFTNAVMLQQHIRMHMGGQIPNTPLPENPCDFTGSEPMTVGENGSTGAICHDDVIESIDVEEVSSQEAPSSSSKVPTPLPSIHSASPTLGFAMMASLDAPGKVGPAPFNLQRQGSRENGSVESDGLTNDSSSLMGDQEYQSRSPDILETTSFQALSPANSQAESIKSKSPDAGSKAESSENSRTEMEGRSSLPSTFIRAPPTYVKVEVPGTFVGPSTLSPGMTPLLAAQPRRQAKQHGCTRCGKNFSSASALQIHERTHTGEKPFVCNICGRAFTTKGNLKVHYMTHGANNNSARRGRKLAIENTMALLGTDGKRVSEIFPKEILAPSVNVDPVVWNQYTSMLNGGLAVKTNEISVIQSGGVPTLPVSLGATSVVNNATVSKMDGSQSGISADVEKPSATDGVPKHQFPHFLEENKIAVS
# Setting: 8-mer, flanks averaged, mean of replicates
Sequence,E-score
GGATGTAA,0.126
CGCGTCGA,-0.211
TAGTTTCA,0.276
GCTGGTAC,-0.28
TAGTTGCA,0.0681
CCCTAGCG,-0.296
GTCCCGGA,-0.292
GACAAAAC,0.0585
CTCCACCC,-0.343
CGCTCTAA,-0.0535
AGGGCGTG,-0.274
GACCCATA,0.0787
CGTGCCGA,-0.251
AGGAGGAA,0.0615
AACATTGG,0.00306
ATTAGACC,0.005
CAGGTTGG,-0.204

# Sample 2 — method: RNA Bind-n-Seq; form: RNA; sample: in vitro; concentration: not given; setting: RNA with constant flanks, ends assumed; baseline: input RNA pool; reading: higher = stronger binding
# Target: RING finger protein unkempt homolog, zinc fingers 1-6, GST-SBP tag (UNK, Homo sapiens, UniProt Q9C0B0, residues 30-357)
# Chain of UniProt Q9C0B0 (30-357, looked up): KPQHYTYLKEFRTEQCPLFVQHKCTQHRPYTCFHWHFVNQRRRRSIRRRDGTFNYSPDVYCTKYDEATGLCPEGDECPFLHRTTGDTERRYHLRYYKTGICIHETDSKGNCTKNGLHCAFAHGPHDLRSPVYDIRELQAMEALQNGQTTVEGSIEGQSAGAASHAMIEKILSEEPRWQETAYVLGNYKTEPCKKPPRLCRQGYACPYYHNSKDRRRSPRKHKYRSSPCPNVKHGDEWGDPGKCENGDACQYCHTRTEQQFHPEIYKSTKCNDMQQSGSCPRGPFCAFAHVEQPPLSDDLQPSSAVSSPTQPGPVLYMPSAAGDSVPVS
# Shared flanks, not repeated: GGGAGUUCUACAGUCCGACGAUC … CAACAGAGGAUUGAGCAUCA
Sequence,bound/input enrichment
GUAGCAUCAACAUCUAUGAACAGAGAGUCUUCUAGAUCCCAUGCAGUCUUUACCAUCACAACCGAAUCAAUGGAGAAGAGCAGCGAGACCGUGAACAUCCGGACCUCCUUACUCAACCUG,0.111 ratio
GUUGAUUCCCUCAACGGGUUAGUUUACGUAGCCCAAAGAGGGGAUAACAUCCCCAAGGUAUCCGUGUUCUCAGAGGAUGGCUAUUUCCUACGAGCCUGGAAUUAUACAGUUGACACACCC,0.123 ratio
GGAUACCUUCAGUCGAAGUUUUUUUAGCCCUCACUGAGCUACUUCCAAGUUUGGAAGUACUCCGUGACCUUGGUGAGUUUCUGUCCCCAAUCCCUUAACCCCUCAUCAAUGCUGCUAGUU,0.36 ratio
CUGUCUGUCCACACCAUGGUCUCCUCAGUCCCCUCCACGCCAGCCCCUCUUCCCCACACCCCGCCGGUGUGCUACACCUCCCUUUGCCAGUCAUCCCGCCAUGGAUGGGGAGCCUACUUG,0.307 ratio
AUCUAUACAACCAUCAACGCCCACCAGUGGUCAGAGACUGUGCAGCCAAUCAUGGAAGCCCUCCGAGAUGCAACAAGGAGACGCGCCUUUGCCCUGGUCUCUCAAGCUUAUACCUCCAUC,0.132 ratio
AGUGCCUAUGAUUACACAAUACCACCUAUGGAGAAAGCUGUUGUGAAAACGGACAUUCAGACCGCGCUCCCUUCUGGGUGUUAUGGAAGAGUGGCUCCACGGUCAGGCUUGGCUGCAAAA,0.187 ratio
GAUCAGACCAGUAAGCCUGAUGAAACUGGUAAAAGUAGUGUGCUGACUGUAUCAAAUGUAUACCGCCGUAAAUCAAGCAUCAAGGCUACUGUGGUCUCUUCUCCUAAAGCAAAAAGUACA,0.156 ratio
GCAGUCUUGUACUGUGACCUAAGAACAAAACUGUAACUGCAUUAGAAACCAUGAAAAAAUCCGAUAUUGUUUUGUGACUUUUAGACAGUGGUAAAUAUAGAACCAUGAAUUCUGGUCACA,3.03 ratio
CCUGAGAUAGUGCUGUGGUUAUAAUGUCUUUUACUAUUGUAUUAAUGGCUAGCCUGUUACAUCCGACUGGGGGGGGGGUACAGAGGUCUGCUGUUUUGUGAGGCUUUUUGUUUUUUUGGG,1.46 ratio
UUAUGUGCCUGUAUUUUUUUAAAAUGGUACACCAGAAAAGGACUGGCAGUCUACUUCUACCACCGUUAAACUUCACCCUCUUUAAUUUCACAACAUAUUCUUUGGAAGCAGGAAGAAAUG,0.118 ratio
UUAGGUUCACAUACCUGCCUGCUAGUCGGGCAACAUGAAGUAGGACAGUUCUGUUGAUUUUUCCGGGCCAUACUAAAGGGAAUGAGCUGAAACAGACCUCCUGAUACCUUUGCUUAAUUA,0.122 ratio

# Sample 3 — method: protein binding microarray; form: double-stranded DNA, one strand shown; sample: in vitro; concentration: not given; baseline: not given; reading: higher = stronger binding
# Target: Histone acetyltransferase KAT6A, winged helix 2, GST fusion (KAT6A, Homo sapiens, UniProt Q92794, residues 85-181)
# Setting: 8-mer, flanks averaged, mean of 2 arrays, mostly near background
# Residues (chain): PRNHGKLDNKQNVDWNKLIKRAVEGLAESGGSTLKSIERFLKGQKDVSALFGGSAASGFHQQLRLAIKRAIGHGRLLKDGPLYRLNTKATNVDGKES
Sequence,E-score
AGCAGCAC,0.184
TATCCGGA,0.148
ACTTTTCG,-0.0781
GGCGCGCA,0.131
CCAGAAAC,0.127
ATAATAAT,0.104
GAACCAGA,-0.0402
AGTGGTAA,-0.043
ACTTTAAT,-0.121
ATGTAAGG,-0.247
ATGTATAC,-0.00143
ACCATAAT,-0.084
ATAACAGG,-0.0853
CGATTACC,-0.05
TCGACGCA,0.0147
CGTAGTTA,-0.0543

# Sample 4 — method: protein-binding microarray; form: double-stranded DNA, one strand shown; sample: in vitro; concentration: not given; reading: higher = stronger binding
# Target: Transcriptional repressor CTCF (CTCF, Homo sapiens, UniProt P49711, residues 1-727, full length assumed)
# Chain of UniProt P49711 (whole entry, looked up): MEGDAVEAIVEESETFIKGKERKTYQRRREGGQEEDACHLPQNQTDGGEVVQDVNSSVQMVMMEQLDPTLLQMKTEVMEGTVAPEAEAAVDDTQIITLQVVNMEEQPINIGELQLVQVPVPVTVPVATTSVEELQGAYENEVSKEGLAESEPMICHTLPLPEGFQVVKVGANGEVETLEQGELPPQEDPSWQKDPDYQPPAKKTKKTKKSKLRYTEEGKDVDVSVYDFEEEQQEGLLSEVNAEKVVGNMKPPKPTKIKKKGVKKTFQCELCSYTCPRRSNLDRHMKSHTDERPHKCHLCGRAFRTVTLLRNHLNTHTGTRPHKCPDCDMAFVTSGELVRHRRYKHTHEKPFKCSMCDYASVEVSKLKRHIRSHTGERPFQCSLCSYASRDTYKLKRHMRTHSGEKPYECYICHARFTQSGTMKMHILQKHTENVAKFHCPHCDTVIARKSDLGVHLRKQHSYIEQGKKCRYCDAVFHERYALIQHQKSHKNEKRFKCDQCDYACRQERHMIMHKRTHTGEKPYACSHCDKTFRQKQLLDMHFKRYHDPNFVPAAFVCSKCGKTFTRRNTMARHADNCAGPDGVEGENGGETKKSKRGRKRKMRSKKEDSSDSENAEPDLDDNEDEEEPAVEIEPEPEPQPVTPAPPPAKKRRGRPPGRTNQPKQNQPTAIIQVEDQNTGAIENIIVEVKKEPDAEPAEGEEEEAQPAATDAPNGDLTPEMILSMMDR
# Setting: k-mer, scored over probes, only values ≥0.25
Sequence,E-score
ATTGCGTA,0.28
AATATGTG,0.315
AAGATAAT,0.267
ATAATGAA,0.284
CAATAATA,0.346
AAAAATAA,0.259
ACTAATAC,0.286
AGATATAT,0.282
GCGCCAAC,0.299
CTAATATA,0.342
TATACTCA,0.332
AATATACG,0.283
TAATAGTA,0.301
AAATTATT,0.285
AGATATTA,0.283
ATACCATA,0.329
ATGAAATC,0.256
ATAAGCGC,0.293
ATATAGGA,0.274
GCATATAA,0.271
CCCCTATC,0.253
GTATGATA,0.349

# Sample 5 — method: RNA Bind-n-Seq; form: RNA; sample: in vitro; concentration: 365 nM; baseline: no-protein control; reading: higher = stronger binding
# Target: RNA binding protein fox-1 homolog 2, RRM domain, GST-SBP tag (RBFOX2, Homo sapiens, UniProt O43251-10, residues 100-194)
# Setting: natural RNA segment, single round, ends assumed
# Shared flanks, not repeated: GGGAGUUCUACAGUCCGACGAUC … UGGAAUUCUCGGGUGCCAA
# Construct (chain): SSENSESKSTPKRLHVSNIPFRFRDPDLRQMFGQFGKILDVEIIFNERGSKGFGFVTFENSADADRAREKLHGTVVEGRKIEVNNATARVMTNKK
Sequence,RBNS enrichment (R)
UUCACUGGAUUUUGGGGUUCCCAGCACCCCAUGUAGAUUUGGGGGUUUCUUUUUGUCUCCCCCACUAUUCAAGGACUCUCCUCUUUACCAAGAAGCACAGAAUUCUGCUG,0.284
GCAAGAACAAGAACUGUUUAAGGCACCUCUGUUCCCAGCCACUGAAGAGAGACGUCAGAAGAUGUUAGAAUAGGUCAAAGCCAAGGCUCUGGUGGGCUGAGGGAAGGUUU,0.316
AGUUACAUCAAGUGGCUAGAUCAAAACCUGUAAAGGAGCAAAACUUCCAGAAGCCUCGAGCCCCUCUUGACCUCCUACACCUGCUUUGGAAAGACAUGCACUUUUUAGUU,0.332
CAGUCAGAAAUGUUACUGGGAGGAGGAAAGGAAAAUCACUUUUUUUCCUCCAUGUGGAAAUGAGGAGAGAGGAAAGUGGAUUGCAAACCAAAAUGUGAGUCAGUGUGAUG,0.625
UCUUCUCACCCUCCUCCCUCCCCUUAGCCAUCACUUCUGGGAAGUAAAGAACUUGACUUAGUGCCGGGCUGUGUGCUUGGUUUGUCUUCUUUGCGCUGUCGGACCUAAGC,0.47
CAGCAGGGGUCAUGCCAAGUCAGGCCUGUAGCUCCUAAUAGGGGCCUAUUUCUACUUUUAUUUUGUAUUUCUGGUCUGUGAAAACAAUUUAAUAAAGGGAAAUGACUUUG,0.919
UGGAAUUCCUGGGGGGGUCUUUAAUUCUGGCUCCUUCCUUCCUCAGAACAUCUCUAUUCUGCAAGACCCCUCUGCCAUGCCAGGGCACGCCCAUUCCAGCUGGAGUCGUG,2.53
UAGAGACAGAGUCUCCCUCUGUUGCCCAGGCUGGUCUGGAACUCCUAGCUUCAAAUGAUCCUCUCACCUCGGCCUCCCAAAAUCCUGGGAUUCCAGGCGUCAGCCACUGC,0.605
GGGGAUAGCAAAGUAGCACUUUACAAAUGGCCAUGGCGUUCAUCCCAAGAGCCACCAGCUCUUCUUACCAUACCACUUCCUAACUCCUGUAAGGAUGAGCCCAGUUAGUA,0.922
AGGCCUCUCCUGCUCAGUCUAGCUCUACAAAGUUCUGUAAAAGACUGGUCCGCAUAUAUAAAGGUCACCAGGAAGCACAGUCAUAAACCUGGUCCCCCACCUAUCAGCAC,0.398
GACCAUUUCACCCAUUGCCCCAUCACAGCAAUAAUGUCCCCGCUACUGGGGACCCGAGCCAGCCAGGCCAUGUUUGCAGGGAAGGAUGCCAAGCAGGGCCUGCCCUGACA,0.677
GCUCCAUGCUGAAGGCUCCCAUUUUCAGUUCCCUCCUGCCCAGGACUGCAUUGUUUUCUAGCCCCGAGGUGGUGGCACGGGCCCUCCCUCCCAGCGCUCUGGGAGCCACG,0.436

# Repeated from above (sample 5):
Sequence,RBNS enrichment (R)
CAGUCAGAAAUGUUACUGGGAGGAGGAAAGGAAAAUCACUUUUUUUCCUCCAUGUGGAAAUGAGGAGAGAGGAAAGUGGAUUGCAAACCAAAAUGUGAGUCAGUGUGAUG,0.625
UCUUCUCACCCUCCUCCCUCCCCUUAGCCAUCACUUCUGGGAAGUAAAGAACUUGACUUAGUGCCGGGCUGUGUGCUUGGUUUGUCUUCUUUGCGCUGUCGGACCUAAGC,0.47
CAGCAGGGGUCAUGCCAAGUCAGGCCUGUAGCUCCUAAUAGGGGCCUAUUUCUACUUUUAUUUUGUAUUUCUGGUCUGUGAAAACAAUUUAAUAAAGGGAAAUGACUUUG,0.919
UGGAAUUCCUGGGGGGGUCUUUAAUUCUGGCUCCUUCCUUCCUCAGAACAUCUCUAUUCUGCAAGACCCCUCUGCCAUGCCAGGGCACGCCCAUUCCAGCUGGAGUCGUG,2.53
UAGAGACAGAGUCUCCCUCUGUUGCCCAGGCUGGUCUGGAACUCCUAGCUUCAAAUGAUCCUCUCACCUCGGCCUCCCAAAAUCCUGGGAUUCCAGGCGUCAGCCACUGC,0.605
GGGGAUAGCAAAGUAGCACUUUACAAAUGGCCAUGGCGUUCAUCCCAAGAGCCACCAGCUCUUCUUACCAUACCACUUCCUAACUCCUGUAAGGAUGAGCCCAGUUAGUA,0.922
AGGCCUCUCCUGCUCAGUCUAGCUCUACAAAGUUCUGUAAAAGACUGGUCCGCAUAUAUAAAGGUCACCAGGAAGCACAGUCAUAAACCUGGUCCCCCACCUAUCAGCAC,0.398
GACCAUUUCACCCAUUGCCCCAUCACAGCAAUAAUGUCCCCGCUACUGGGGACCCGAGCCAGCCAGGCCAUGUUUGCAGGGAAGGAUGCCAAGCAGGGCCUGCCCUGACA,0.677
